{"data": "Published values pooled from the literature", "note": "Every numbered part comes from another study and shows a few of its results, in no order.", "sequence of UniProt Q9Y6M4 (whole entry, looked up)": "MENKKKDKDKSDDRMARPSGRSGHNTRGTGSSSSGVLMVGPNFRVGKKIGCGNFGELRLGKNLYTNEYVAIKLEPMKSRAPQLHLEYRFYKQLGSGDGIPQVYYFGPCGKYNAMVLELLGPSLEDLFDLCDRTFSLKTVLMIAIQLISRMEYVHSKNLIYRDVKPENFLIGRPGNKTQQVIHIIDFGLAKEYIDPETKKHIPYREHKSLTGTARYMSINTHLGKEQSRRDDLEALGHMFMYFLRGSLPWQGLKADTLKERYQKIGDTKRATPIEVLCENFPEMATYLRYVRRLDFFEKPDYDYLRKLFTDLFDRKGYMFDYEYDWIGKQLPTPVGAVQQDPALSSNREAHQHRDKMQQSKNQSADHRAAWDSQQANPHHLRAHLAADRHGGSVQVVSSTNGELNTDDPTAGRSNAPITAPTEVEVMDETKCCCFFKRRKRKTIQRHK", "sequence of UniProt Q15349 (whole entry, looked up)": "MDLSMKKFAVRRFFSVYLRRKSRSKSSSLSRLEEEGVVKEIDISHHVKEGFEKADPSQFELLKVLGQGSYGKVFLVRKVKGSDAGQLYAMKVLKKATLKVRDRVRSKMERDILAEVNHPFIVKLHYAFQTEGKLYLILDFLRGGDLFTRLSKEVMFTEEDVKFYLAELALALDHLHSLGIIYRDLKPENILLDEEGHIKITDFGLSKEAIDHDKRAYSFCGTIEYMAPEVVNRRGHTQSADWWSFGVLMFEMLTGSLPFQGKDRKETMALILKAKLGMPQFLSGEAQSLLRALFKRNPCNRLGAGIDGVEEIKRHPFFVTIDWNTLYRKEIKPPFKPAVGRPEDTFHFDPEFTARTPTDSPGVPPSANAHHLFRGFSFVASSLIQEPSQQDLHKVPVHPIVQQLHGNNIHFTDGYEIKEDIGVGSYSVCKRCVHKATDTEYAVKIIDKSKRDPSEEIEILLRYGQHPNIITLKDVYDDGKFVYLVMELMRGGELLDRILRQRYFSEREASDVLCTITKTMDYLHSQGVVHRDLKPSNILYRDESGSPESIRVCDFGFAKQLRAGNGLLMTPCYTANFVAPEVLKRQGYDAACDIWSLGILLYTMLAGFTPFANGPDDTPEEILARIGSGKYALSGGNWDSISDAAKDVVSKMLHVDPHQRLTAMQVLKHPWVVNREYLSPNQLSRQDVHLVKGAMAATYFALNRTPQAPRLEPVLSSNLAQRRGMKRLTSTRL", "sequence of UniProt O14733 (whole entry, looked up)": "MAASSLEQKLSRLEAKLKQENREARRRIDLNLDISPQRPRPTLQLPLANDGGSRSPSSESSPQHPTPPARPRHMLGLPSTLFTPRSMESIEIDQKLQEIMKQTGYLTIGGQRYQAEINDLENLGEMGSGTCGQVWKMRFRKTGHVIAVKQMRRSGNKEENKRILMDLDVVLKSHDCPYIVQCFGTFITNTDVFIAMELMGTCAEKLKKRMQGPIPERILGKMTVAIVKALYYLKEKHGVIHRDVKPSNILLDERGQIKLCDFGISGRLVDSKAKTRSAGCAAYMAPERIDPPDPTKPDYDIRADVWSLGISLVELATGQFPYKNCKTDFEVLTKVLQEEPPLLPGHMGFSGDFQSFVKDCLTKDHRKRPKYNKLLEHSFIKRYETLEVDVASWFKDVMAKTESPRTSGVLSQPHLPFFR", "sequence of UniProt P31749 (whole entry, looked up)": "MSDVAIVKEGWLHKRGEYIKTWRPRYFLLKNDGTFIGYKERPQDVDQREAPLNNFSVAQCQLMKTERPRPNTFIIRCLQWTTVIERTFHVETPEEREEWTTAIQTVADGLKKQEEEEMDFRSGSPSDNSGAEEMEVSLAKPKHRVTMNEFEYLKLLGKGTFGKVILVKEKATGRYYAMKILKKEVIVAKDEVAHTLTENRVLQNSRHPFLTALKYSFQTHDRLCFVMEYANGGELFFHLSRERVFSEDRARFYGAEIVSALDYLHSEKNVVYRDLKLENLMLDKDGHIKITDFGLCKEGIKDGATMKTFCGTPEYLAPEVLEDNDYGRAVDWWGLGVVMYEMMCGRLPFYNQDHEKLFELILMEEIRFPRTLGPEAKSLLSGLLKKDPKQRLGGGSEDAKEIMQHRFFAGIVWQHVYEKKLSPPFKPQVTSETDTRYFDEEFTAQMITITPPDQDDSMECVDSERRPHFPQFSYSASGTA", "sequence of UniProt P49759 (whole entry, looked up)": "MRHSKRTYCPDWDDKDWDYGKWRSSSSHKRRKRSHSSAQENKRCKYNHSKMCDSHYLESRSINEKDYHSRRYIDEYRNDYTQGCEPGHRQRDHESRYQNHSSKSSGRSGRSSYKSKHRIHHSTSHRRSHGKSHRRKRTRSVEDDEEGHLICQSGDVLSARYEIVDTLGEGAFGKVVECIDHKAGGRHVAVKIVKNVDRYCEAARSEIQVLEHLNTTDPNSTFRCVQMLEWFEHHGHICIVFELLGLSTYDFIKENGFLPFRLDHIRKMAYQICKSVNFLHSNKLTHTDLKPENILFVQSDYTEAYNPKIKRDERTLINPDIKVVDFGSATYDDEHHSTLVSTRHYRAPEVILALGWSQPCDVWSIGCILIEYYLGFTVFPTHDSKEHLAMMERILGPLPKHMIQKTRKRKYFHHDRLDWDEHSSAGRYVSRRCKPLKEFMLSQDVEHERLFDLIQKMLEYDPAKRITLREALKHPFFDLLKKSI", "sequence of UniProt P49137 (whole entry, looked up)": "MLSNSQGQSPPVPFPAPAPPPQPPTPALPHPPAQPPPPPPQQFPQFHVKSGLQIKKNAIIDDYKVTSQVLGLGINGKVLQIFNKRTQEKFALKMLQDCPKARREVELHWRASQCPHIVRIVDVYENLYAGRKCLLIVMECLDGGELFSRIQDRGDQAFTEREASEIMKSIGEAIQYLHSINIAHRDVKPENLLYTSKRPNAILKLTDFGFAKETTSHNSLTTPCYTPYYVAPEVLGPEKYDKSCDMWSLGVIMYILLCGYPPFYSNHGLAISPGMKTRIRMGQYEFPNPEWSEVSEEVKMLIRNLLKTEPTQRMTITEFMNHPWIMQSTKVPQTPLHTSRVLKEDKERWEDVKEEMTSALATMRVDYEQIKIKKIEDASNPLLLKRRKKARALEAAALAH", "sequence of UniProt P42684 (whole entry, looked up)": "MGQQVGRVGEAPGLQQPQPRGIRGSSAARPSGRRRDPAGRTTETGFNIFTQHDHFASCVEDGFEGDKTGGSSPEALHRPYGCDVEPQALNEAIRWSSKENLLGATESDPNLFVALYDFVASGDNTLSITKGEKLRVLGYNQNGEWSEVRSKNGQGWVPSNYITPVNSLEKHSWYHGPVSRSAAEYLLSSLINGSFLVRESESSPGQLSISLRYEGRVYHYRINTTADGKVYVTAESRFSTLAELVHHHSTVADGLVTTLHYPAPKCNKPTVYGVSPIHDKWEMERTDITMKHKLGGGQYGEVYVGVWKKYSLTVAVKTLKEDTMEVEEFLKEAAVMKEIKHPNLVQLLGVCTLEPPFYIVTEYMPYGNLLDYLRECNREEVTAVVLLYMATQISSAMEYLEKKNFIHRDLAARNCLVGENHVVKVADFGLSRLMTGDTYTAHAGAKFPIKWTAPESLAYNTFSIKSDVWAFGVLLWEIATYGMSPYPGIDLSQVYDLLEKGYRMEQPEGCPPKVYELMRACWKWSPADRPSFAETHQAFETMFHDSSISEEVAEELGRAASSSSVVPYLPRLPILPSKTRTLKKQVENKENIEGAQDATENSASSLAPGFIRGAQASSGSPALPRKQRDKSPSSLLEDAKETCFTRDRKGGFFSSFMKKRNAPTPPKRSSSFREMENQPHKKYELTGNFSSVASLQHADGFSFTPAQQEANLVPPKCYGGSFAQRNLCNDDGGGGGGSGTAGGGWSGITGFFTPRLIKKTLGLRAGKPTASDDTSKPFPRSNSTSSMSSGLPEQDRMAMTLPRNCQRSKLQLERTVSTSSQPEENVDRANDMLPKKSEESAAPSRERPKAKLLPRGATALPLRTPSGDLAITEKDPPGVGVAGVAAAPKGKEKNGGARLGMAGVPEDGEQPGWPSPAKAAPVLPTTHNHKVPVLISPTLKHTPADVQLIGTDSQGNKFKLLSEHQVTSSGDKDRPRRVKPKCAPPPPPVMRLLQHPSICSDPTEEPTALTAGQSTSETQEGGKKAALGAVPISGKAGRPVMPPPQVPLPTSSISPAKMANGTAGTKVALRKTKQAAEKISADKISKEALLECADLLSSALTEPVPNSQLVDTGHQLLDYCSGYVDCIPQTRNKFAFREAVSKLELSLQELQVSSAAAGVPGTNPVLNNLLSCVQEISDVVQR", "sequence of UniProt Q13188 (whole entry, looked up)": "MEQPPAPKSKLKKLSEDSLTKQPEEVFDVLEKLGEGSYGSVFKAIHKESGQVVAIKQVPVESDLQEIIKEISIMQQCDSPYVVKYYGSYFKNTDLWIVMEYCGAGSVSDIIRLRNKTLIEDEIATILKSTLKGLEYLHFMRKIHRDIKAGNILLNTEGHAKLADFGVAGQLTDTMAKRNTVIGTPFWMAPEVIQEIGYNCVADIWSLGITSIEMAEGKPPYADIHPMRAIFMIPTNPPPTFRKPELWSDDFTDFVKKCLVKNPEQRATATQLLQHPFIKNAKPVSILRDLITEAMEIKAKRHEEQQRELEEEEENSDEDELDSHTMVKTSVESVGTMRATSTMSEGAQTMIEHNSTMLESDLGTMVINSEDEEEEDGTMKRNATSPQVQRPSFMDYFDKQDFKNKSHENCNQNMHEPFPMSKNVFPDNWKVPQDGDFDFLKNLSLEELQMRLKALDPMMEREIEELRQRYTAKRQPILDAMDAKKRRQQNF", "sequence of UniProt Q9HC98 (whole entry, looked up)": "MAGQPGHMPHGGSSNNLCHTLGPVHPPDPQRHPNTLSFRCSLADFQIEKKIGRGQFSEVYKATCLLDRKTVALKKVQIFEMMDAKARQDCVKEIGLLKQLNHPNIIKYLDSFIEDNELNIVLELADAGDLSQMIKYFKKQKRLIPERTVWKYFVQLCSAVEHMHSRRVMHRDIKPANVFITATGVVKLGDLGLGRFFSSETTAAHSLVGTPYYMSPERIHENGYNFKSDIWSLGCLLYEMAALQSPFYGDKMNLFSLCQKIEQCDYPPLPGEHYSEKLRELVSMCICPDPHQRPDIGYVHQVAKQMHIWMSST"}
{"data": "Series 1", "SMILES": "Cc1nc(Nc2ncc(C(=O)Nc3c(C)cccc3Cl)s2)cc(N2CCN(CCO)CC2)n1", "observed": "enzyme activity", "action": "inhibitor", "tested at": "0.5 µM", "baseline": "control"}
{"target": "Casein kinase I isoform gamma-3 (CSNK1G3, Homo sapiens, UniProt Q9Y6M4)", "remaining activity": "97.2%"}
{"target": "Rhodopsin kinase GRK7 (GRK7, Homo sapiens, UniProt Q8WTQ7)", "remaining activity": "103%"}
{"target": "Serine/threonine-protein kinase Nek6 (NEK6, Homo sapiens, UniProt Q9HC98)", "remaining activity": "86.2%"}
{"target": "Tyrosine-protein kinase ABL2 (ABL2, Homo sapiens, UniProt P42684)", "remaining activity": "2.74%"}
{"target": "MAP kinase-activated protein kinase 2 (MAPKAPK2, Homo sapiens, UniProt P49137)", "remaining activity": "99.5%"}
{"data": "Series 2", "Structure (SMILES)": "CS(=O)(=O)NCC[C@H](NC(=O)c1cncc2c1cnn2-c1ccc(F)cc1)c1ccnc(S(C)(=O)=O)c1", "observed": "cell-free assay", "method": "competition with immobilised ligand", "tested at": "1 µM"}
{"target": "SRSF protein kinase 2 (SRPK2, Homo sapiens, UniProt P78362)", "remaining binding": "100%"}
{"target": "Ribosomal protein S6 kinase alpha-2, C-terminal kinase domain (RPS6KA2, Homo sapiens, UniProt Q15349)", "remaining binding": "100%"}
{"target": "Mast/stem cell growth factor receptor Kit (KIT, Homo sapiens, UniProt P10721, A829P)", "remaining binding": "83%"}
{"target": "Serine/threonine-protein kinase 3 (STK3, Homo sapiens, UniProt Q13188)", "remaining binding": "100%"}
{"target": "Dual specificity mitogen-activated protein kinase kinase 2 (MAP2K2, Homo sapiens, UniProt P36507)", "remaining binding": "100%"}
{"target": "RAC-alpha serine/threonine-protein kinase (AKT1, Homo sapiens, UniProt P31749)", "remaining binding": "100%"}
{"target": "Dual specificity mitogen-activated protein kinase kinase 7 (MAP2K7, Homo sapiens, UniProt O14733)", "remaining binding": "100%"}
{"target": "Dual specificity protein kinase CLK1 (CLK1, Homo sapiens, UniProt P49759)", "remaining binding": "93%"}
{"data": "Series 3", "target": "Interferon regulatory factor 3, full length, phosphomimetic (IRF3, Homo sapiens, UniProt Q14653, residues 1-427, S386D/S396D/S398D/S402D/T404D/S405D)", "method": "protein-binding microarray", "molecule type": "double-stranded DNA, one strand shown", "sample": "in vitro", "tested at": "2540 nM top", "notes": "60-bp whole probe", "added": "salmon DNA 0.4 mg/ml", "baseline": "random background probes", "direction": "higher = stronger binding", "constant ends, left off below": "GCCTAGCAC … GTCTTGATTCGCTTGACGCTGCTG", "Construct (chain)": "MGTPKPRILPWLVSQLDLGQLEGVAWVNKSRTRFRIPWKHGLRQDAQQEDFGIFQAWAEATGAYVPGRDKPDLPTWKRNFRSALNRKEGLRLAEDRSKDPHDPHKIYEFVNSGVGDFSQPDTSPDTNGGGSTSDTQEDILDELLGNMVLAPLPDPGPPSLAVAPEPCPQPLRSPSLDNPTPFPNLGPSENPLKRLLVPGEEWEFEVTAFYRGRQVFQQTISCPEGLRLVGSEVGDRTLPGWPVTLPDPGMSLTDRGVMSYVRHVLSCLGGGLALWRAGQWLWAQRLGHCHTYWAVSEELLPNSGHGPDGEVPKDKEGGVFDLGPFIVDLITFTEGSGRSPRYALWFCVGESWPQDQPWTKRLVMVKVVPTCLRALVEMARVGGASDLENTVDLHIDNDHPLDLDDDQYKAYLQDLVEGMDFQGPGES"}
{"Sequence": "TTAGATATCGGGACTAGATTAGTGCTA", "fitted relative affinity [z-score]": 0.0811}
{"Sequence": "TGAGGACTGGGGTTTCGGTTAGTGCTA", "fitted relative affinity [z-score]": 2.25}
{"Sequence": "TTAGAACTGACTCTCGATTAGTGCTAG", "fitted relative affinity [z-score]": -0.395}
{"Sequence": "TCATCTTTCATTGCTGCACTGTGCTAG", "fitted relative affinity [z-score]": 1.13}
{"Sequence": "TTAGGACTGGACACTGGATTAGTGCTA", "fitted relative affinity [z-score]": -0.568}
{"Sequence": "AGATTTTTCTCAACCGTTGTGTGCTAG", "fitted relative affinity [z-score]": 0.475}
{"Sequence": "TTAGGACTGGGTAACGGTTAGTGCTAG", "fitted relative affinity [z-score]": -0.537}
{"Sequence": "GACGATTTCGGGGATCGAGACGTGCTA", "fitted relative affinity [z-score]": 0.962}
{"data": "Series 4", "target": "PABPC1L2, full length, GST fusion (mouse, UniProt A0ABA7IW68)", "method": "RNAcompete", "molecule type": "RNA", "sample": "in vitro", "tested at": "20 nM", "notes": "7-mer, probes averaged, single round", "baseline": "mean of 7-mers", "direction": "higher = stronger binding", "Target sequence (chain)": "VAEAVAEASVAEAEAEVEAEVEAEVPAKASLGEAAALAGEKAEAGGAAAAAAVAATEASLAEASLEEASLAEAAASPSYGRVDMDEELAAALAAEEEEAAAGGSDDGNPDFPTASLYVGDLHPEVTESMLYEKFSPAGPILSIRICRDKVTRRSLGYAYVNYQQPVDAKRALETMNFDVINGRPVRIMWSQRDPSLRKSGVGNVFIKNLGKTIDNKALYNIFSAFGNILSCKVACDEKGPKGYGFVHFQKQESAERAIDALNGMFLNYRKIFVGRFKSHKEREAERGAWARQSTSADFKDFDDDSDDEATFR"}
{"Sequence": "UAGGCAG", "7-mer Z-score": 0.151}
{"Sequence": "ACGUACC", "7-mer Z-score": -0.24}
{"Sequence": "ACAAUGC", "7-mer Z-score": 0.0932}
{"Sequence": "GACUACA", "7-mer Z-score": -0.0192}
{"Sequence": "UUAGAAU", "7-mer Z-score": -0.132}
{"Sequence": "GCGGAAG", "7-mer Z-score": -0.0409}
{"Sequence": "GCCGCUG", "7-mer Z-score": -0.146}
{"Sequence": "AAGCAGA", "7-mer Z-score": 0.287}
{"note": "A few entries again (series 3):"}
{"Sequence": "TCATCTTTCATTGCTGCACTGTGCTAG", "fitted relative affinity [z-score]": 1.13}
{"Sequence": "TTAGAACTGACTCTCGATTAGTGCTAG", "fitted relative affinity [z-score]": -0.395}
